Measurements from different studies.
Each numbered part is a random draw from the data of one study; scales do not carry over between parts.

Study 1
Target: Protein C-ets-1 (ETS1, Homo sapiens, UniProt P14921, residues 1-441, full length assumed)
Sequence of UniProt P14921 (whole entry, looked up): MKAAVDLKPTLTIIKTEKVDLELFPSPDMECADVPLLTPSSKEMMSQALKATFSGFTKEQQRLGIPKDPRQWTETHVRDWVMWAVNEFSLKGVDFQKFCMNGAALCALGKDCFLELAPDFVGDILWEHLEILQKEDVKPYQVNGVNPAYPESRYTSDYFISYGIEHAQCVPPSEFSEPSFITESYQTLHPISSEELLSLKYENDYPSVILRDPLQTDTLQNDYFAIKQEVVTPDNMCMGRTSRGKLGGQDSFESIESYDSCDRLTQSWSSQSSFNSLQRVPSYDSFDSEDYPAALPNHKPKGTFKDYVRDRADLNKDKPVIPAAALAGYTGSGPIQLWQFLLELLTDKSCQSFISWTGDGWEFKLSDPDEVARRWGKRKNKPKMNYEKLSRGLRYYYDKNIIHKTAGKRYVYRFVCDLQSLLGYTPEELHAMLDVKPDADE
Technique: protein-binding microarray
Molecule type: double-stranded DNA, one strand shown
Medium: in vitro
Concentration: not given
Setting: k-mer, scored over probes, only values ≥0.25
Direction: higher = stronger binding
| Strand | E-score |
| --- | --- |
| CTACCGGA | 0.443 |
| CGGAAGGA | 0.457 |
| AACCGGGA | 0.287 |
| ATCCTGGC | 0.331 |
| TCCGCCCA | 0.369 |
| GACTTCCA | 0.391 |

Study 2
Target: Interferon regulatory factor 7, full length, phosphomimetic (IRF7, Homo sapiens, UniProt Q92985, residues 1-503, S471D/S472D/S475D/S476D/S477D/S483D/S484D/S487D)
Technique: protein-binding microarray
Molecule type: double-stranded DNA, one strand shown
Medium: in vitro
Concentration: 2200 nM top
Setting: 60-bp whole probe
With: salmon DNA 0.4 mg/ml
Relative to: random background probes
Direction: higher = stronger binding
Shared flanks, not repeated: GCCTAGCAC … GTCTTGATTCGCTTGACGCTGCTG
Residues (chain): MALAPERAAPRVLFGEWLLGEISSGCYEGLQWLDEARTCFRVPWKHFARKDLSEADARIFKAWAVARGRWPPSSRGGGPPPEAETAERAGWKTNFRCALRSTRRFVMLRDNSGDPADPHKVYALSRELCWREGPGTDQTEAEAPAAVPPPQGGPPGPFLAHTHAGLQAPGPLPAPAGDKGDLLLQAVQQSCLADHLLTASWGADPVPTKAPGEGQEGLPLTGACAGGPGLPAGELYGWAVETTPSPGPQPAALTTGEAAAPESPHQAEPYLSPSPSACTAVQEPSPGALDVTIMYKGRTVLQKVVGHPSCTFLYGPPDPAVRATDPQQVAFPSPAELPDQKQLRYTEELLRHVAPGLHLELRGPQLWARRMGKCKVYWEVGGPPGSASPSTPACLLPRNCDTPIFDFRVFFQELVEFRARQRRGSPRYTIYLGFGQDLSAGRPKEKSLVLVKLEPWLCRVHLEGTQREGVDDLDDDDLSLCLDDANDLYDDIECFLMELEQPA
| Strand | fitted relative affinity [z-score] |
| --- | --- |
| GACGGTGTCGGTATCGGGACGTGCTAG | -0.633 |
| GACGGACTAGACACTGGGGACGTGCTA | -0.772 |
| TTAGGTATCCTGATCCTTTAGTGCTAG | 0.392 |
| TTAGATTTCGGGTTCCGATTAGTGCTA | 4.85 |
| GACGAAATCAGACTGGAGACGTGCTAG | -0.0109 |
| GACTCTTCAGCACTCGGGTCGTGCTAG | 0.902 |
| TTGGGTATCGACTATCGGTTAGTGCTA | 0.803 |
| TACGGACTGGGTATCGGGACGTGCTAG | -0.828 |
| AACGGTATCGGGTTTCGGGACGTGCTA | 1.88 |
| TTAGGTATCGATTTTCGGTTAGTGCTA | 5.36 |
| TTAGGTTTCGGTTCCGGTGAGTGCTAG | 11.2 |
| TCATCTTTCACTGCTCCCACTGTGCTA | 2.73 |

Study 3
Target: Histone acetyltransferase KAT6A, winged helix 1, GST fusion (KAT6A, Homo sapiens, UniProt Q92794, residues 1-85)
Technique: protein binding microarray
Molecule type: double-stranded DNA, one strand shown
Medium: in vitro
Concentration: not given
Setting: 8-mer, flanks averaged, mean of 2 arrays, mostly near background
Relative to: not given
Direction: higher = stronger binding
Construct (chain): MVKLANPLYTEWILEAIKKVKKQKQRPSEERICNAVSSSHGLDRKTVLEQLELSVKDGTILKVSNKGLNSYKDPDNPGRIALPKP
| Strand | E-score |
| --- | --- |
| TGCGCACA | 0.316 |
| CGGGGGTA | 0.184 |
| AAGCCCGT | 0.224 |
| ATGTCTTG | -0.0141 |
| ATTTAATA | -0.0583 |
| CGTCCATA | -0.0574 |
| CGGACTGA | 0.0978 |
| AAGTGGGC | -0.179 |

Mixed results
| Substance | target | assay | test system | setting | how to read | measurement | value |
| --- | --- | --- | --- | --- | --- | --- | --- |
| PhoQ, residues 284 288 289 292 302 303 SASVAL | PhoP, residues 12 14 15 18 19 NMSSL (Escherichia coli, UniProt P23836) | Sort-seq, item: YFP reporter | E. coli | PhoQ-PhoP variant library, with: 10 µM Mg2+ | relative to: high Mg2+ state, higher = stronger signaling | fold induction | 13.2 |

Repeated from above (study 2):
| Strand | fitted relative affinity [z-score] |
| --- | --- |
| TTAGGTATCGATTTTCGGTTAGTGCTA | 5.36 |
| GACGAAATCAGACTGGAGACGTGCTAG | -0.0109 |
| TCATCTTTCACTGCTCCCACTGTGCTA | 2.73 |
| TTAGGTTTCGGTTCCGGTGAGTGCTAG | 11.2 |
